{"data": "Experimental data gathered from unrelated publications", "Oprm1": "Mu-type opioid receptor (Oprm1, Rattus norvegicus, UniProt P33535)", "sdiA": "Regulatory protein SdiA (sdiA, Escherichia coli, UniProt P07026)", "Uncharacterized hydrolase SAUSA300_2518": "Uncharacterized hydrolase SAUSA300_2518 (Staphylococcus aureus, UniProt Q2FDS6)", "lasR": "Transcriptional activator protein LasR (lasR, Pseudomonas aeruginosa, UniProt P25084)", "note": "“And” joins repeats or separate records; there may be more than shown. Numbers after ± are the reported error.", "sequence of UniProt P33535 (whole entry, looked up)": "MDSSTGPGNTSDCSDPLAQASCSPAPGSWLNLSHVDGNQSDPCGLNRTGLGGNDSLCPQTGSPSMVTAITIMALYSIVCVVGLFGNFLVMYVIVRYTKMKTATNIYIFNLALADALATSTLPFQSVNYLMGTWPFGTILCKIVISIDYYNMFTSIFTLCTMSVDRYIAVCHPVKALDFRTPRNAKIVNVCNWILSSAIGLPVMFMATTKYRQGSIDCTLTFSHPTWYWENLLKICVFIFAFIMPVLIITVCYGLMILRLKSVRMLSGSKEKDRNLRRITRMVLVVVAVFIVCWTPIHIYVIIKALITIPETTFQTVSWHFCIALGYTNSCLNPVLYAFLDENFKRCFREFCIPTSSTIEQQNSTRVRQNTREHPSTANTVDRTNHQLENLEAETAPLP", "sequence of UniProt Q91V12 (whole entry, looked up)": "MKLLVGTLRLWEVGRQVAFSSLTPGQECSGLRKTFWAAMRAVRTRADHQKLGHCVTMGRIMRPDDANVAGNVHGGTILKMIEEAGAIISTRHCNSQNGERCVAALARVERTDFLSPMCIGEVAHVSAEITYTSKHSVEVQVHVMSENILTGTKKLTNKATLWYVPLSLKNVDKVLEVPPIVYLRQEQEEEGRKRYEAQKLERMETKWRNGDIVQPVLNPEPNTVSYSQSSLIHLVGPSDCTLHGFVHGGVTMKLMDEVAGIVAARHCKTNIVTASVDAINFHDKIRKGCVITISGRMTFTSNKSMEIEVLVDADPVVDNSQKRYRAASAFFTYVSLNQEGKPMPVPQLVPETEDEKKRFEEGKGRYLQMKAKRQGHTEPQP", "sequence of UniProt P07026 (whole entry, looked up)": "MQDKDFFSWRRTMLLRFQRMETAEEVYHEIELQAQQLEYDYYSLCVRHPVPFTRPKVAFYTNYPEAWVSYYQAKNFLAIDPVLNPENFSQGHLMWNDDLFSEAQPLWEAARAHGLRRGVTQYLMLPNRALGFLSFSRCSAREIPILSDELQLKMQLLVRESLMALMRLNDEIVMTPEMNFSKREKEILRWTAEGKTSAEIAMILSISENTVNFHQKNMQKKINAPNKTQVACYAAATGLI", "sequence of UniProt Q9H2X3 (whole entry, unmodified, looked up)": "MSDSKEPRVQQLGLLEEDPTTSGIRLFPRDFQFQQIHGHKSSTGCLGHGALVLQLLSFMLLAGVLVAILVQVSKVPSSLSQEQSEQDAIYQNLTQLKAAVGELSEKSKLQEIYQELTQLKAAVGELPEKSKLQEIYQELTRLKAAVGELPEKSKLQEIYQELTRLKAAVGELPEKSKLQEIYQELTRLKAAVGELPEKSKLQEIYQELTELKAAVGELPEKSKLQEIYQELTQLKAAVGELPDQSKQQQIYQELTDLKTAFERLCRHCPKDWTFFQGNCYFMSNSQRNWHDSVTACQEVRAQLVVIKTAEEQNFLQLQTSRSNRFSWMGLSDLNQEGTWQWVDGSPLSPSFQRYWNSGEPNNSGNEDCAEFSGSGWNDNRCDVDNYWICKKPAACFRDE", "sequence of UniProt Q9Y2J8 (whole entry, looked up)": "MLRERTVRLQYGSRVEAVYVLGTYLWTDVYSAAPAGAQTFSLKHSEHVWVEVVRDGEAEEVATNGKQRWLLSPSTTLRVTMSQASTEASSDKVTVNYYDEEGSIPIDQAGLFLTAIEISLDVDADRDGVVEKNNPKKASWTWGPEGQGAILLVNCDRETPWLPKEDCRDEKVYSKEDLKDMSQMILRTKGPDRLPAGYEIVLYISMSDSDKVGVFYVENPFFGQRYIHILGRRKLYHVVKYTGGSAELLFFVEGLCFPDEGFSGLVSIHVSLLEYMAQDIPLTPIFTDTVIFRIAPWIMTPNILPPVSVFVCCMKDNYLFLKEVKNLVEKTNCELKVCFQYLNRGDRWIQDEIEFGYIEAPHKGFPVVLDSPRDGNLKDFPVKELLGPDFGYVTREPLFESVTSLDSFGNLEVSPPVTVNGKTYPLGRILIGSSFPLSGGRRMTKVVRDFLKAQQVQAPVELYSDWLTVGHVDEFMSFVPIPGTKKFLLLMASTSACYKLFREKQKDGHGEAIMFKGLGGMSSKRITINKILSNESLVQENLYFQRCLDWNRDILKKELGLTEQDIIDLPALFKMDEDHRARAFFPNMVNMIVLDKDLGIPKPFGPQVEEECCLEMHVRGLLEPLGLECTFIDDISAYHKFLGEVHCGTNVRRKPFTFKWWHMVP", "sequence of UniProt Q05513 (whole entry, looked up)": "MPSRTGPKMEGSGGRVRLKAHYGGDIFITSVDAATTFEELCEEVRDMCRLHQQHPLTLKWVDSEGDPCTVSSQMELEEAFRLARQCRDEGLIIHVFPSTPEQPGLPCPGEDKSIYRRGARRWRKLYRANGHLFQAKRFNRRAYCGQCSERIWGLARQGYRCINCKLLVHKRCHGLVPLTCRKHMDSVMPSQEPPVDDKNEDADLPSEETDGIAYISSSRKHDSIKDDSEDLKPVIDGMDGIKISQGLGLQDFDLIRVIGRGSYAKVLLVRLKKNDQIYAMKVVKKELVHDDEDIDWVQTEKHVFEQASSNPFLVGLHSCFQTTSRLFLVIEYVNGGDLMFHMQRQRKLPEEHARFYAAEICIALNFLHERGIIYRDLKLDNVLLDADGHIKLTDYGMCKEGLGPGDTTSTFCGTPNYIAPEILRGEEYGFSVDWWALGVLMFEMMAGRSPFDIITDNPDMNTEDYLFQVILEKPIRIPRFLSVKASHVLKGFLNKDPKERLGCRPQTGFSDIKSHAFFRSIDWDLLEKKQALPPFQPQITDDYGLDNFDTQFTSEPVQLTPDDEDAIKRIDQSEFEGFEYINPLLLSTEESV", "sequence of UniProt Q14145 (whole entry, looked up)": "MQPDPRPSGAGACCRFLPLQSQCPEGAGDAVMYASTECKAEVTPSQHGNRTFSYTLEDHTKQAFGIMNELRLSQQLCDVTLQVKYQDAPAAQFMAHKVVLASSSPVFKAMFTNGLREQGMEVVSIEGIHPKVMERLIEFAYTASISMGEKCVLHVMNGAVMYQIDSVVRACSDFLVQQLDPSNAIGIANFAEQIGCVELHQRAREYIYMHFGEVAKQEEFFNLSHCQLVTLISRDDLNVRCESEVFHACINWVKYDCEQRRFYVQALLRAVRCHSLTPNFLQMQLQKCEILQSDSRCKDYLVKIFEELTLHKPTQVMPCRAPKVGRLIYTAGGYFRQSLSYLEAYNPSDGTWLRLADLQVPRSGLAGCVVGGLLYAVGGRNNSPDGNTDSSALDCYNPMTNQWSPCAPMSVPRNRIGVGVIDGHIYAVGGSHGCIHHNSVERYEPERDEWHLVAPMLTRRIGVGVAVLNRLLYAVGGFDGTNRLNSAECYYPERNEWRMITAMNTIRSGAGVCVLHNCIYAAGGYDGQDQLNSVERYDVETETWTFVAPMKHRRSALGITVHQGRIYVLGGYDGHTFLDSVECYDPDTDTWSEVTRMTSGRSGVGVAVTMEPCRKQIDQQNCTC", "sequence of UniProt P0A988 (whole entry, unmodified, looked up)": "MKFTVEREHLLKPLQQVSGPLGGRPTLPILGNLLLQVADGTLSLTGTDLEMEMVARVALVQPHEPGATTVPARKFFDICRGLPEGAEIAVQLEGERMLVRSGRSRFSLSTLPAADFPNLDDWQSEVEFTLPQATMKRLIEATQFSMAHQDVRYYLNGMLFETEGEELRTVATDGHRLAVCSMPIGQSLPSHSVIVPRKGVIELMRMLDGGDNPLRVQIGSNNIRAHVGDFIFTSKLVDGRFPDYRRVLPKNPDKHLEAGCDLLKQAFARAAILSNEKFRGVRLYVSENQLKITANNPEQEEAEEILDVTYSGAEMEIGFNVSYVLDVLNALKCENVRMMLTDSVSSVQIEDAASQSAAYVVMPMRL", "sequence of UniProt P51451 (whole entry, looked up)": "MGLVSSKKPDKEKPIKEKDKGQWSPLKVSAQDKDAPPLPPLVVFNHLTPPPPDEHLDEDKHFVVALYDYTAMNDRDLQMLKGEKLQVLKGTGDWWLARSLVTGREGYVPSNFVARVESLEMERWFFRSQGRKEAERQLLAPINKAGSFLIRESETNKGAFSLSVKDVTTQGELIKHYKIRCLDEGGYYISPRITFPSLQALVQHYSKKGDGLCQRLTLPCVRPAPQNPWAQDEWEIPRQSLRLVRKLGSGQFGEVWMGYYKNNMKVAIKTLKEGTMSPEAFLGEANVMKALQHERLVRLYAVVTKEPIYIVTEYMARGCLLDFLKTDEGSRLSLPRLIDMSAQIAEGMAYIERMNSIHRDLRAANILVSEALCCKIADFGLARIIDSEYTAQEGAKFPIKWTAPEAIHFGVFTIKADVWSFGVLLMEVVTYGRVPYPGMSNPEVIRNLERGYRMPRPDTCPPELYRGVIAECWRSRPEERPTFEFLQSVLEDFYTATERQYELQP", "sequence of UniProt Q9UBE8 (whole entry, looked up)": "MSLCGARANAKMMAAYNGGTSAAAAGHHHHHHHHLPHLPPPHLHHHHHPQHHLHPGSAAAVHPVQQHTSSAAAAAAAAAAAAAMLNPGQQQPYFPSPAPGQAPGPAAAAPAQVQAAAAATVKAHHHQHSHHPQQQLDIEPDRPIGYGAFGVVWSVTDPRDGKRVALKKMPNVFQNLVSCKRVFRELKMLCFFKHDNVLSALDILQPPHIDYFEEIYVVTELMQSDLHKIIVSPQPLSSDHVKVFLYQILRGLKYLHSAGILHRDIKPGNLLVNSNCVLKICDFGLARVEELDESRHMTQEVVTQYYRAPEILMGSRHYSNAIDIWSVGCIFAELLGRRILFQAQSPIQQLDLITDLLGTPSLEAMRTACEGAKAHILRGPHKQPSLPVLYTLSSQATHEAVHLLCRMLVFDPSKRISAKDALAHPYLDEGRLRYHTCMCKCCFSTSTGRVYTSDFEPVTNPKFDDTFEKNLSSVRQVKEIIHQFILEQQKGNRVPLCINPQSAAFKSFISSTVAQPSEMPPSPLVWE"}
{"Compound": "N=C(N)NCc1cn([C@@H]2[C@@H](OCCCl)O[C@H](CO)[C@@H](O)[C@@H]2O)nn1", "target": "C-type lectin domain family 4 member M, extracellular domain (CLEC4M, Homo sapiens, UniProt Q9H2X3)", "assay": "isothermal titration calorimetry", "measurement": "ΔG", "value": "-6.64 kcal/mol and -6.76 kcal/mol and -6.67 kcal/mol"}
{"Compound": "CCCC[C@H]1CNCCN1C[C@@H]1CCCN1C[C@@H](Cc1ccc2ccccc2c1)N1CCN(CCc2ccc(Cl)c(Cl)c2)[C@H]([C@H](C)CC)C1", "target": "Oprm1", "assay": "radioligand binding", "test system": "rat brain membranes", "setting": "500 nM, pH 7.5, 25 °C, with: 0.87 nM [3H]DAMGO", "measurement": "remaining binding", "value": "104 ± 11.6%"}
{"Compound": "O=C(Cc1ccccc1Cl)N[C@H]1CCOC1=O", "target": "sdiA", "measurement": "Emax", "value": "104%"}
{"Compound": "CC(C)[C@@H]1NC(=O)[C@H](CCC(=O)O)NC(=O)CNC(=O)[C@H]([C@@H](C)O)NC(=O)[C@H](CCC(=O)O)NC(=O)[C@H](CCC(=O)O)NC(=O)[C@H](CC(=O)O)NC(=O)[C@H](C(C)C)NC(=O)[C@H]([C@@H](C)O)NC(=O)CNC(=O)[C@H](CC(=O)O)NC(=O)[C@H](CC(N)=O)NC(=O)[C@H](Cc2ccc(O)cc2)NC1=O", "target": "KEAP1 (Homo sapiens, UniProt Q14145)", "assay": "Keap1-Nrf2 binding, inhibitor, competitive FP", "setting": "6.25 µM, 30 min, with: Nrf2 peptide probe", "scale": "lower = stronger inhibition", "measurement": "fluorescence polarization", "value": "0.115 a.u. and 0.101 a.u."}
{"Compound": "O=C(N1CCCCC1)n1ccnn1", "target": "Cytosolic acyl coenzyme A thioester hydrolase (Acot7, Mus musculus, UniProt Q91V12)", "assay": "probe labelling, inhibitor, competitive ABPP-SILAC, measured: Acot7", "test system": "mouse T cells", "setting": "concentration not given, 4 h, in situ, single peptide", "scale": "baseline: treated over DMSO, lower = more inhibition", "measurement": "SILAC ratio", "value": "1.49 and 1.44 and 1.6 and 1.57 and 1.53"}
{"Compound": "CC(C)[C@H]1NC(=O)C[C@H]2/C=C/CCSSC[C@@H](NC1=O)C(=O)N[C@H](Cc1cccc3ccccc13)C(=O)NCC(=O)O2", "target": "BLK (Homo sapiens, UniProt P51451)", "assay": "enzyme activity, inhibitor", "setting": "10 µM", "measurement": "inhibition", "value": "4.3%"}
{"Compound": "C#CCCCCOc1ccc2c(c1)CCCN2C(=O)CCl", "target": "V-type proton ATPase subunit B, brain isoform (Homo sapiens, UniProt P21281)", "assay": "mass spectrometry profiling, measured: ATP6V1B2", "test system": "H460 cell lysate", "setting": "100 µM over 10 µM, UniProt P21281", "scale": "baseline: high over low concentration", "measurement": "reactivity ratio", "value": 1.42}
{"Compound": "O=C(Cc1ccc(F)c(C(F)(F)F)c1)N[C@H]1CCOC1=O", "target": "sdiA", "measurement": "Emax", "value": "97.6%"}
{"Compound": "Cc1cc(C)cc(COc2cc3c(cc2OCc2cc(C)cc(C)c2)C2CC(O)(Cc4cn(CCOCCOCCOCCOCC(=O)Nc5cccc6c5C(=O)N(C5CCC(=O)NC5=O)C6=O)nn4)CC(C)N2CC3)c1 (racemic)", "target": "Rab GDP dissociation inhibitor beta (Homo sapiens, UniProt P50395)", "assay": "degrader, Western blot", "test system": "PC-3", "setting": "2 µM, 24 h", "measurement": "degradation", "value": "6%"}
{"Compound": "O=C(Nc1ccncc1)c1ccccc1OS(=O)(=O)F", "target": "Uncharacterized hydrolase SAUSA300_2518", "assay": "enzyme activity, inhibitor, fluorogenic substrate", "setting": "0.5 µM", "measurement": "remaining activity", "value": "69.8% and 71% and 73.3%"}
{"Compound": "CC(C)CC(O)(CC(C)C)c1cn(C(=O)N2CCCC2)nn1", "target": "Lysosomal Pro-X carboxypeptidase (Mus musculus, UniProt Q7TMR0)", "assay": "enzyme activity, inhibitor, measured: Prcp", "test system": "mouse, brain", "setting": "i.p., 0.8 mg/kg, 4 h, protein level", "scale": "baseline: vehicle", "measurement": "ratio of ratios", "value": 1.5}
{"Compound": "CCCCCCCCCC(=O)CC(=O)NC1CCCCC1=O (centres unmarked)", "target": "lasR", "assay": "reporter gene, agonist", "test system": "Escherichia coli JLD271", "setting": "10 µM, pSC11 and pJN105L plasmids", "scale": "baseline: OdDHL at same concentration", "measurement": "agonist activity", "value": "89%"}
{"Compound": "[CH3][Ti+2][O]C(=O)c1ccc([S][Au][PH](c2ccccc2)(c2ccccc2)c2ccccc2)cc1.c1cc[cH-]c1.c1cc[cH-]c1", "target": "PRKCZ (Homo sapiens, UniProt Q05513)", "assay": "kinase activity, HotSpot radiometric", "setting": "1 µM, with: ATP 10 µM", "scale": "baseline: vehicle", "measurement": "remaining activity", "value": "108% and 106%"}
{"Compound": "COc1ccccc1-c1n[nH]c2nc(N[C@H]3CC[C@H](NS(=O)(=O)CC(C)C)CC3)ncc12", "target": "cdc2-related kinase 12 (Leishmania donovani, UniProt A0A3S7WQK2)", "assay": "kinobead competition pull-down", "test system": "Leishmania donovani, cell extract", "setting": "0.0032 µM, unit not given", "scale": "baseline: vehicle", "measurement": "remaining binding", "value": 0.54}
{"Compound": "CS(C)(=O)=Nc1ccc(-c2ccc(-c3nc4cc(O[C@@H]5CO[C@H]6[C@@H]5OC[C@H]6O)[nH]c4cc3F)cc2)cc1", "target": "NLK (Homo sapiens, UniProt Q9UBE8)", "assay": "enzyme activity, inhibitor", "setting": "10 µM", "measurement": "inhibition", "value": "14%"}
{"Compound": "CN(C)CCCSC(=S)N1CCN(C(=O)/C=C/c2coc3ccccc3c2=O)CC1", "target": "Nucleoprotein (N, Tomato spotted wilt virus, UniProt P25999, R94A/Y184A)", "assay": "binding, microscale thermophoresis", "setting": "0.061 µM", "scale": "dose series", "measurement": "MST response", "value": "0.0696 a.u."}
{"Compound": "CN1CCCN(C(=O)c2ccc(S(=O)(=O)F)cc2)c2ccccc21", "target": "Uncharacterized hydrolase SAUSA300_2518", "assay": "enzyme activity, inhibitor, fluorogenic substrate", "setting": "0.1 µM", "measurement": "remaining activity", "value": "113%"}
{"Compound": "CCCCCCCCCCCCn1nnc(CC(=O)O)n1", "target": "lasR", "assay": "reporter gene, agonist", "test system": "Pseudomonas aeruginosa PAO-JP2", "setting": "100 µM, plasI-LVAgfp reporter", "scale": "baseline: OdDHL at same concentration", "measurement": "agonist activity", "value": "0%"}
{"Compound": "CC(C)C[C@H](NC(=O)[C@H]1O[C@@H]1C(=O)O)C(=O)NCCCCN=C(N)N", "target": "Cathepsin L2 (CTSV, Homo sapiens, UniProt O60911)", "measurement": "Hill slope", "value": -1.41}
{"Compound": "CCCCCCCCCCCCCC(=O)CC(=O)N[C@H]1CCOC1=O", "target": "sdiA", "measurement": "Emax", "value": "64.3%"}
{"Compound": "O=C(O)c1cccc(CP(=O)(O)O)n1", "target": "blaNDM-1 (Klebsiella pneumoniae, UniProt C7C422)", "assay": "inhibitor", "setting": "with: nitrocefin", "measurement": "dissociation half-life", "value": "9.5 ± 0.9 min"}
{"Compound": "CN(C)[C@H]1C[C@@]23CC[C@@]4(O2)C(=CC[C@]2(C)[C@@H](c5ccc6ccncc6c5)CC[C@H]24)C=C3[C@@H](O)[C@@H]1O", "target": "CAMK2D (Homo sapiens, UniProt Q13557)", "assay": "ATP probe labelling, inhibitor, KiNativ profiling", "setting": "1 µM", "measurement": "inhibition", "value": "-5.3%"}
{"Compound": "CC[C@@H](C)[C@@H]1CN([C@H](Cc2ccc3ccccc3c2)CN2CCC[C@H]2CN2CCNC[C@@H]2CO)CCN1CCC12CC3CC(CC(C3)C1)C2", "target": "Oprm1", "assay": "radioligand binding", "test system": "rat brain membranes", "setting": "500 nM, pH 7.5, 25 °C, with: 0.87 nM [3H]DAMGO", "measurement": "remaining binding", "value": "108 ± 7.75%"}
{"Compound": "CC(=O)N[C@@H](CCC(N)=O)C(=O)N[C@@H](CC1CCCCC1)C(=O)N[C@@H](CNC(=O)CCl)C(=O)N[C@@H](CC(C)C)C(=O)N[C@@H](Cc1ccccc1)C(=O)O", "target": "Beta sliding clamp (Escherichia coli, UniProt P0A988)", "assay": "binding, isothermal titration calorimetry", "setting": "pH 7.4, 37 °C", "measurement": "ΔH", "value": "-16.9 kcal/mol"}
{"Compound": "O=C(N[C@@H]1c2ccccc2C[C@H]1N1CCCC1)c1ccc(-c2ccnc3[nH]ccc23)nc1", "target": "PRKACB (Homo sapiens, UniProt P22694)", "assay": "binding, competition with immobilised ligand", "setting": "3 µM", "measurement": "remaining binding", "value": "2.4%"}
{"Compound": "CCCCCC(=O)CC(=O)N[C@H]1CCOC1=O", "target": "lasR", "assay": "reporter gene, agonist", "test system": "Pseudomonas aeruginosa PAO-JP2", "setting": "100 µM, plasI-LVAgfp reporter", "scale": "baseline: OdDHL at same concentration", "measurement": "agonist activity", "value": "21%"}
{"Compound": "CCOC(=O)[C@@H]1Cc2c(cc([N+](=O)[O-])cc2[N+](=O)[O-])[C@H](O)[C@]12C(=O)Nc1ccc(Br)cc12", "target": "PIM1 (Homo sapiens, UniProt P11309)", "assay": "binding, competition with immobilised ligand", "setting": "0.1 µM", "measurement": "remaining binding", "value": "41%"}
{"Compound": "CC[C@@H](C)[C@@H](NC(=O)[C@@H](CCC(N)=O)NC(=O)[C@H](NC(=O)[C@H]1CCCN1C(=O)[C@H](NC(=O)[C@@H](CO)NC(=O)[C@@H](Cc1ccccc1)NC(=O)[C@H]1CCCN1C(=O)[C@@H](CCC(N)=O)NC(=O)[C@H](N)CCSC)[C@H](C)CC)C(C)C)C(=O)N[C@@H](C(=O)N[C@H](CC(C)C)C(=O)N[C@H](CCC(N)=O)C(=O)NCC(=O)N[C@H](CO)C(=O)N[C@H](CCCNC(=N)N)C(=O)N[C@H](CCCNC(=N)N)C(=O)N[C@H](CCCNC(=N)N)C(=O)N[C@H](CCC(N)=O)C(=O)NCC(=O)N[C@H](CCCNC(=N)N)C(N)=O)[C@H](C)O", "target": "Kcnma1 (Mus musculus, UniProt Q08460)", "assay": "ion current, blocker, inside-out patch clamp", "test system": "Xenopus oocytes", "setting": "+100 mV, with: 10 µM cytosolic Ca2+", "measurement": "Hill coefficient", "value": 0.78}
{"Compound": "O=C(Cc1ccc(Br)cc1)N[C@H]1CCOC1=O", "target": "lasR", "assay": "plasI-LVAgfp reporter, antagonist", "scale": "baseline: pump-active over pump-mutant", "measurement": "IC50 ratio", "value": 14}
{"Compound": "O=C1NC(=O)c2c1c1cc(F)c[n+]3c1c1c2c2cc(O)ccc2[n]1[Ru-4]312([N]=C=S)[S+]3CC[S+]1CC[S+]2CC3 (centres unmarked)", "target": "FLT4 (Homo sapiens, UniProt P35916)", "assay": "enzyme activity", "setting": "100 nM, human enzyme, with: 10 µM ATP", "scale": "baseline: untreated", "measurement": "remaining activity", "value": "42%"}
{"Compound": "CCCC[C@H]1CNCCN1C[C@@H]1CCCN1C[C@H](CC1CCCCC1)N1CCN(CCc2ccc(Cl)c(Cl)c2)[C@H]([C@@H](C)O)C1", "target": "Oprm1", "assay": "radioligand binding", "test system": "rat brain membranes", "setting": "500 nM, pH 7.5, 25 °C, with: 0.87 nM [3H]DAMGO", "measurement": "remaining binding", "value": "106 ± 5.02%"}
{"Compound": "N[C@H](C(=O)N1CCCC1)C1CCN(c2nccc3c(-c4ncc(Cl)cc4Cl)cccc23)CC1", "target": "PADI2 (Homo sapiens, UniProt Q9Y2J8)", "assay": "thermal shift", "setting": "3.004 µM", "measurement": "melting temperature", "value": "66.2 °C and 66.1 °C"}
{"note": "For quick reference, copied from above:"}
{"Compound": "CN(C)CCCSC(=S)N1CCN(C(=O)/C=C/c2coc3ccccc3c2=O)CC1", "target": "Nucleoprotein (N, Tomato spotted wilt virus, UniProt P25999, R94A/Y184A)", "assay": "binding, microscale thermophoresis", "setting": "0.061 µM", "scale": "dose series", "measurement": "MST response", "value": "0.0696 a.u."}
{"Compound": "CN1CCCN(C(=O)c2ccc(S(=O)(=O)F)cc2)c2ccccc21", "target": "Uncharacterized hydrolase SAUSA300_2518", "assay": "enzyme activity, inhibitor, fluorogenic substrate", "setting": "0.1 µM", "measurement": "remaining activity", "value": "113%"}
